# Results gathered from unrelated publications.
# Every numbered part comes from another study and shows a few of its results, in no order. Positions count from the first letter of the parent shown.

# Sample 1
# Target: Interferon regulatory factor 5, full length, phosphomimetic (IRF5, Homo sapiens, UniProt Q13568-2, residues 1-514, K96S/S451D/S453D/S456D/S462D)
# Method: protein-binding microarray
# Form: double-stranded DNA, one strand shown
# Medium: in vitro
# Concentration: 250 nM
# Notes: 60-bp whole probe
# Added: salmon DNA 0.4 mg/ml
# Reference: random background probes
# Reading: higher = stronger binding
# Constant ends, left off below: GCCTAGCAC … GTCTTGATTCGCTTGACGCTGCTG
Sequence,log fluorescence [z-score]
TTAGGACTGCTACTGCTTTAGTGCTAG,-0.513
TTAGGTTTCCTATTCCTTTAGTGCTAG,1.02
TTAGGACTGAACACTGGGTTAGTGCTA,-0.184
AAGCAAGGTGGAGAAGAGAAGTGCTAG,-0.474
TTTTTTTTTTTTCTGATCCAGTGCTAG,1.5
TCATTTATATACCTGAAACTGTGCTAG,1.02
GACGGTATCGGGTATCGGGCCGTGCTA,2.98
GACGGTTTGGACTTTCGGGACGTGCTA,3.97
GACCGACTGGACTATCGGGACGTGCTA,0.962
TTAGGTATCCTGCTCCTTTAGTGCTAG,-0.122
TTAGAGCTCAGTATCGATTAGTGCTAG,6.6
TTAGATAGCGGGACTGGATTAGTGCTA,-0.182
GACGTTCTCGGTTTCGGGACGTGCTAG,3.7
TTAGGACTCCTACTGCTTTAGTGCTAG,-0.331
CTTGCTACACATCTCACTCTGTGCTAG,0.274
TAAGGTATCGACTTTCGGTTAGTGCTA,10
TTCAGTTTTCTTTTCCATTTGTGCTAG,2.18
TCAGCCATCAATATCTGACTGTGCTAG,0.169
TTAGGACTGGGTTCCGGTTAGTGCTAG,0.0985
GACGGTTTCGGTCTCGAGACGTGCTAG,9.14
TTAGGTATCGATTTCGGTTAGTGCTAG,9.37
TTGTGTTGCTGTTTGAGGAAGTGCTAG,0.355
TACGATTTCGGGTTTCGAGACGTGCTA,4.59
GGAGTTTCCACCCTTCTCTCGTGCTAG,0.515

# Sample 2
# Target: RNA binding protein fox-1 homolog 2, RRM domain, GST-SBP tag (RBFOX2, Homo sapiens, UniProt O43251-10, residues 100-194)
# Method: RNA Bind-n-Seq
# Form: RNA
# Medium: in vitro
# Concentration: 365 nM
# Notes: natural RNA segment, single round, ends assumed
# Reference: no-protein control
# Reading: higher = stronger binding
# Constant ends, left off below: GGGAGUUCUACAGUCCGACGAUC … UGGAAUUCUCGGGUGCCAA
# Target sequence (chain): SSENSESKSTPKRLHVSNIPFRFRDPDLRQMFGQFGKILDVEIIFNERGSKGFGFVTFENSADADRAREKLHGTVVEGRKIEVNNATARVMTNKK
Sequence,RBNS enrichment (R)
GAAGAGAAAUGGUCUCCUUGGUUUUAAAAAUAACUUAGUGUCACGGUACUUUCUCUGUCCUCUCAACUGAGGACAGUGACUAGUUAAUCUUGACAUAAUUGCAUUUGGCU,0.561
UUCUUGUCCCUGGCGCUGGCUAAAAAUAGCUCGUUUCCAGAUGCUUUUGUAGAUGACUGAAGUAUUGUAAGGCGCAGUCAGGAGCUCUGGACUCGAGAACGGCAGAAAGG,0.626
AUUUUCCUUUUAGGAGACACACAAUUAAGACUCUCUGGUUCUGUCCUUGCUUUGGAGACUUUAAGACAUUUCCUAAAGCACAAAUAAAAGCCUCGUAUUUCCCCAUUGAG,0.236
GGAUAAAACGGGUUACUAAGAUGAAAUUGCCAAAAAAAAAAAAAAAUUUGUAACUAAUUUUGUACGUAUGAAUGAAAUCUUUGACCUCUGUCGAGGUUUGCAAAGACUGA,1.34
UGCUCUUAUUUUUCCAACAGCUAAACUACUCUUAGUUGAACAGUGUGCCCUAGCUUUUCUUGCAACCAGAGUAUUUUUGUACAGAUUUGCUUUCUCUUACAAAAAGAAAA,3.14
UAGGCCUCAGAUUGUGAUGAUCCAGGGAGUUAGCUCCCUAAAUUCUUGGGUGACUGAUGGUUUAACUUGGUAAGUUGUAAUCUUUCCUGAAAGAGGAAGGAGCUGAAGUU,0.393
GUUCCUACCCUUGCUGAACAGCACAAGAUGGGUGGGUCGGGGGCUAUCAAGGCCACUGUGGUAGUGCUUCCCUGAGCAUUCAAUCCCUGGAUCCUGUAGGCCCUGGGAGG,0.502
GGCUGCAGUCUCAACCAGGAAUGGCCAGAAGCCUCCACAGCUCCAUUACAGUGCUUUGGCUGGCUGAAGGUGGGAUUUGGGGACAGAAGUUACAUCAGAAUGUCAGAUGG,0.939
UAUAAACACUAAGAUGGGGUGCAAGGGCCCAGCCCCAGCUCCACAGCCCCCAUAUGCACCCACCCUGUCGCUAUCUUGGAUGGCCCGCUCUGGGAGAUGUUGGGUGUUUU,0.338
GCUGUUUUCGAGUUCAGGUGAAUUAGCCUCAAUCCCCCGUGUUCACUUGGCUCCCAUAGCCCUCUUGAUGGAUCACGUAAAACUGAAAGGCAGCGGGGAGCAGACAAAGA,0.406
UGACCCCAGGGCCUGGACCUGCAGGAUCAGGUUAGGGCGAGCGCUACCUCUCCAGCCUCAGCUCUCAGUUGCAGCCCUGCUGCUGCCUGCCUGGACUUGGCCCCUGCCAC,0.314
AGUGUAUAGUAUUAAGAUGCCUAGAAGAGAGAUGGUUUUGUUCCACUCUUACAGGCACUUUAUAUUUCUUGCUGUAACUACAGCAAUCACAUACAGUACAGACAACCUCA,0.284

# Sample 3
# Target: RING finger protein unkempt homolog, zinc fingers 1-6, GST-SBP tag (UNK, Homo sapiens, UniProt Q9C0B0, residues 30-357)
# Method: RNA Bind-n-Seq
# Form: RNA
# Medium: in vitro
# Concentration: not given
# Notes: RNA with constant flanks, human and mouse sites, ends assumed
# Reference: input RNA pool
# Reading: higher = stronger binding
# Constant ends, left off below: GGGAGUUCUACAGUCCGACGAUC … CAACAGAGGAUUGAGCAUCA
# Target sequence (chain): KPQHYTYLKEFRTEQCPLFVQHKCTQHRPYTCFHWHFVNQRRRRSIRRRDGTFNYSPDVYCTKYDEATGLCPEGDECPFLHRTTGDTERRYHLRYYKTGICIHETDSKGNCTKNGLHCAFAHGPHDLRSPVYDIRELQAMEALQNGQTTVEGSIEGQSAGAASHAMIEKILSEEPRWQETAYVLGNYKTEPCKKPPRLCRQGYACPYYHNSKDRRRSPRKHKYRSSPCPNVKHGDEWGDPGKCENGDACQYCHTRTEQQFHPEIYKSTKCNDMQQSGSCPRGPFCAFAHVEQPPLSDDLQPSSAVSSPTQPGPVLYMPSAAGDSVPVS
Sequence,bound/input enrichment [ratio]
CAGAACCGAGAGGGCCUGAGGGCCCUACAGAAGGACCUGAGUGUCUCUGAAGAUGUGAUGGUUUGCUUUGGGAACAUGUUCAUCAAAAUGCCUCACCCUAAGACGAAGGAAAUGAUCCAG,0.114
GACUGGAAGAACUCCAAUCUUGACAGACACAAUCUCCAAGACUUCAUCAAUAUUAAACUCAAUUCAGCUUCUAUCUUGCCAGAAAUGGAAGGACUUUCUGAGUUUACCGAGUAUCUCUCA,0.133
AUAUCCAUAUAUACCUUCCAGUGUUCACACAGGAUGGGGUUCCCAGCCUUGCAUGGUUGCUAGGUUGGGGGCAGGCCCAGUCUGCUCAAGGCCCACGAUGAUCUUGGUGCUCCAGGCAGG,0.132
CCUAAGCAUCAGGCAGAAGUCCCAUUGGACCUGAAUGAGAGGGUUCCUUCCUGGCAGCUAUUUAGCUUUCCCAUGGAGGACAGUUAUGGGACCAGCUCAGCUCCUCUUGGCUUGAUAGCU,0.124
CUCCCUGACAACACCUUUCGAGACCUGGGCAACCUCACGCAUCUCUUUCUGCAUGGCAACCGUAUCCCCAGUGUGCCUGAGCACGCUUUCCGUGGCCUGCACAGUCUUGACCGCCUCCUC,0.193
AGUGUUAAAUUUAACCCUGUUGAGACAUUUCUCUUGGGAAGUUGUGCUUCUGAUAGGAAUAUAGUACUGUAUGAUAUGCGGCAAGCUACUCCUUUGAAAAAGGUUAUCCUGGAAAUGAGG,0.39
AGCAAAAAUCAAAUUAAAGUAGAUCUUGUAGAUGAGAAUUUUACAGAAUUAAGAGGAGAAAUAGCAGGACCUCCAGACACACCGUAUGAAGGUGGAAGAUAUCAACUAGAGAUAAAAAUA,3.53
GGCCGCCGCCAGACCCCCGCUUCCAUGCGGUUCGGGUCCAAAAUGAUGCCGAUGUUCCUGACAGUUUACCUCAGUAACAGUGAGCAGCACUUCACAGAAGUUCCUGUUACCCCAGAGACA,0.155
CUUUUUGAAUCUUUCAAGAGUUUUGAAGGUCUCUUUUAUUUUCUGGGAUCCAUUGUUAACUUUAGCCAGGACCCAGAUGUGCACUUUAAAUAUAUUCAGGCAGCUUGCAAGACUGGGCAA,0.4
AGGGACCUGAGCAUCGAUCCCAGGCAGCUGGCUCCGGCCCCGGGGGGCACCCACGUGGUGGCCCUAGUGCCUGCGCGCUGGCUGGCCAGCCUCCGCGAUCGCCGGCUGCCCCUGGGACCC,0.0984
GAUAUUGUGCUUGCCAUCCUCGAAUUACUUAAGUAUCAUCAGAGAGUCUUAUAUAUUGACAUAGACAUCCACCAUGGUGAUGGUGUUGAGGAAGCUUUUUAUACAACAGAUCGCGUGAUG,0.348

# Sample 4
# Target: Sal-like protein 4, full length isoform A (SALL4, Homo sapiens, UniProt Q9UJQ4, residues 1-1053)
# Sequence of UniProt Q9UJQ4 (whole entry, looked up): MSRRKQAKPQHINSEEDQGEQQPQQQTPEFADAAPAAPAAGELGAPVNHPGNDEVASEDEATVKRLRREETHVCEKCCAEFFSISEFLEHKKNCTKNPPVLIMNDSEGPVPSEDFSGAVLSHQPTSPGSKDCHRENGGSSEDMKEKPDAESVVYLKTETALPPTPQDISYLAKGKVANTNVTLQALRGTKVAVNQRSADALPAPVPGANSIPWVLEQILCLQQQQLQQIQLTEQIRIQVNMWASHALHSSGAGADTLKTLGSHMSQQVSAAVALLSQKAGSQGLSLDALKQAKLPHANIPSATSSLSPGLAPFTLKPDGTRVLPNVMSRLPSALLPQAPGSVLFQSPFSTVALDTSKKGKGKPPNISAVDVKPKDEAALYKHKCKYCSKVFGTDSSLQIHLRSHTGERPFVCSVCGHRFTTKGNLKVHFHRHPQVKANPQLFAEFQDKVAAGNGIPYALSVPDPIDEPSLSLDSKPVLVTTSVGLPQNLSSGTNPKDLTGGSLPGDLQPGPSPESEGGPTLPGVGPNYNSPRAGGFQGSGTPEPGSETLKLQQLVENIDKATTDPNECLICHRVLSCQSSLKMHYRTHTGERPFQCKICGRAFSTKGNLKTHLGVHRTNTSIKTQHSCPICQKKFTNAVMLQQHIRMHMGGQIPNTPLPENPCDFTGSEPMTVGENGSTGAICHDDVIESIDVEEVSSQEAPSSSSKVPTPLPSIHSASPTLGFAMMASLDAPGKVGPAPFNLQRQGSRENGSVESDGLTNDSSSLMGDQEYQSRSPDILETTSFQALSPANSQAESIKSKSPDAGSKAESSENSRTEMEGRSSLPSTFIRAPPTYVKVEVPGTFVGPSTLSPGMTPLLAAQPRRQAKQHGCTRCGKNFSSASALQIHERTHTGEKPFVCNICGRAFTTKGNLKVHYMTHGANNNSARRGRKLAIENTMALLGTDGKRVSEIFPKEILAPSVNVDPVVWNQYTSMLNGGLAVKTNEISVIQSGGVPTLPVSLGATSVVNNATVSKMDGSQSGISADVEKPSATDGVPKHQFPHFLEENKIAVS
# Method: universal PBM
# Form: double-stranded DNA, one strand shown
# Medium: in vitro
# Concentration: 600 nM
# Notes: 8-mer, flanks averaged, mean of replicates
# Reading: higher = stronger binding
Sequence,E-score
CCAGCTTA,0.0413
AAGCTAAC,0.0204
AGCGTGCC,-0.226
GAAATAGA,0.242
AGTCTAAC,-0.0197
AGCTTCGC,-0.129
AGCGCGCT,-0.222
ATAATCCA,0.284
GATCCTAA,-0.171
ATTGCCCC,0.0764
GCTGTTTA,0.191
CGGACTGA,-0.204
ATACTGAT,0.208
AGAAACCG,-0.259
AACGCATT,0.173
ATTGTCTG,0.215
GCTGTGTA,-0.00145
TGATTAAA,0.304
AAAATAAA,0.373

# Sample 5
# Target: CCNA1, cyclin fold, Cln2 fusion (human)
# Method: yeast growth competition, sequencing
# Medium: yeast
# Notes: weak parent motif
# Reference: not given
# Reading: higher = stronger binding
# Starting sequence: BORA docking peptide (human); SSLRRKLFLDGNG
Substitution,normalised enrichment score
SSLRRKLFLAGNG [D10A],-0.137
SSLRKKLFFDGNG [R5K L9F],0.202
SSLRAKAFLDGNG [R5A L7A],-0.00878
SSLRRKLFADGNG [L9A],-0.393
SSLRRKLFLDGAG [N12A],0.671
SSLRRKLFFDGNG [L9F],0.098
SSLRRKLALDGNG [F8A],0.533
ASLRRKLFLDGNG [S1A],0.223
SSLRKKLLLDGNG [R5K F8L],-0.00407
SSLARKLFLDGNG [R4A],0.301
SSLRRALFLDGNG [K6A],0.387

# Sample 6
# Target: Histone acetyltransferase KAT6A, both winged helices, GST fusion (KAT6A, Homo sapiens, UniProt Q92794, residues 1-181)
# Method: protein binding microarray
# Form: double-stranded DNA, one strand shown
# Medium: in vitro
# Concentration: not given
# Notes: 8-mer, flanks averaged, mean of 2 arrays, mostly near background
# Reference: not given
# Reading: higher = stronger binding
# Construct (chain): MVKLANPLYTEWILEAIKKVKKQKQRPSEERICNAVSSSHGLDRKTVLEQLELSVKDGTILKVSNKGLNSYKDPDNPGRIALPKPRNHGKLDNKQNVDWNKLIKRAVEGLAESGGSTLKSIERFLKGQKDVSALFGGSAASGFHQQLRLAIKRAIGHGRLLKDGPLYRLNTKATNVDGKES
Sequence,E-score
GTCGACAA,-0.0688
GACCAATC,-0.186
CAGCATGG,-0.155
ACGGTAGA,0.154
AGACAGAC,0.0202
GGCCCAAC,-0.048
TACCTCCA,-0.221
ATCACTCC,-0.107
CGCCTGCA,-0.0295
GAGGTAGC,-0.0493
AGGGCTTC,-0.13
AGGCCGAA,-0.0473
ACGTATGG,0.00327
CGACCCCC,0.0452
ATTTCTAC,-0.158
CAGGGACG,0.025
GAAGCGCA,0.275
GTGTGTAA,-0.121
CTCGCTAA,0.18
ACCAAACC,-0.0307
CTCACAAG,-0.0537
ATACTGCC,-0.0448
ACCATACA,-0.059
CAAGATGG,-0.102
GATGTCGC,0.217

# Excerpt of the above (sample 4):
Sequence,E-score
CCAGCTTA,0.0413
AAGCTAAC,0.0204
AGCGTGCC,-0.226
GAAATAGA,0.242
AGTCTAAC,-0.0197
AGCTTCGC,-0.129
AGCGCGCT,-0.222
ATAATCCA,0.284
GATCCTAA,-0.171
ATTGCCCC,0.0764
GCTGTTTA,0.191
CGGACTGA,-0.204
ATACTGAT,0.208
AGAAACCG,-0.259
AACGCATT,0.173
ATTGTCTG,0.215
GCTGTGTA,-0.00145
